Measurements collected from several papers.
Each numbered part is a random draw from the data of one study; scales do not carry over between parts.

Sample 1 — technique: RNAcompete; form: RNA; matrix: in vitro; tested at: 20 nM; notes: 7-mer, probes averaged, single round; reference: mean of 7-mers; reading: higher = stronger binding
Target: PABPC1L2, full length, GST fusion (mouse, UniProt A0ABA7IW68)
Target sequence (chain): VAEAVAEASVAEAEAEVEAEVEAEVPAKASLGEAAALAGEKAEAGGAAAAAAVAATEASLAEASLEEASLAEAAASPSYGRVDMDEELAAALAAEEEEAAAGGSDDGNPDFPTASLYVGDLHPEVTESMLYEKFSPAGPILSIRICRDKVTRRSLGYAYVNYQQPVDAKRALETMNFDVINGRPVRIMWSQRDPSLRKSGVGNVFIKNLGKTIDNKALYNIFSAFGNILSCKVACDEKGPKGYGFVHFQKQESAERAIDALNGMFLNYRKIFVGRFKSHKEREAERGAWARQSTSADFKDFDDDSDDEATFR
Oligonucleotide | 7-mer Z-score
UGAGAUG | -0.0718
AUCGACA | 0.0116
GCCCGAC | -0.298
CCGGUAG | -0.133
AGUGACC | -0.0174
CGCUUAA | -0.18
ACGCGAU | -0.0718
CGGUAGU | -0.148
CUCUCAA | -0.22
AAAUAUC | 1.73
GAGCAUU | -0.0881
CGCUGUU | -0.411
CCCUAGC | -0.327
GGCGGAG | 0.325
AAACGAG | 1.1
UCAGUGC | -0.277
GUCAGUG | -0.166
GGUCUUA | -0.271
CUGCGGU | -0.137
GUAGGAC | 0.184
GGACCUC | -0.117

Sample 2 — technique: competition protein-binding microarray; form: double-stranded DNA, one strand shown; matrix: in vitro; tested at: 2 µM; with: Pho4 competitor, 0.05 µM; reading: higher = stronger binding; shared flanks, not repeated: … GTCTTGATTCGCTTGACGCTGCTG
Target: Centromere-binding protein 1, full length, His-tagged (CBF1, Saccharomyces cerevisiae, UniProt P17106, residues 1-351)
Sequence of UniProt P17106 (whole entry, looked up): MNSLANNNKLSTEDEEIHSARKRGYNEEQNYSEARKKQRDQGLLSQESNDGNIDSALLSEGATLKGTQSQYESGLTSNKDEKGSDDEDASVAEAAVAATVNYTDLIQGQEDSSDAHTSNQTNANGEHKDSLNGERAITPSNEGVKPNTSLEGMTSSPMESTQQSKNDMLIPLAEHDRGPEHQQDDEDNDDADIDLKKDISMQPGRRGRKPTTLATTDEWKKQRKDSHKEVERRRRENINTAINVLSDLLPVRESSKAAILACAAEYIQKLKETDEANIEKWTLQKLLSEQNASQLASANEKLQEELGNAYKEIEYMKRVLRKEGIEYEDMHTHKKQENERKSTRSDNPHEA
Notes: whole 60-bp probe, lowest competitor level
Oligonucleotide | fluorescence intensity [a.u.]
CGGGGTTAAGTTTGTCACTGCACTTGCTTGCAGCAG | 66.3
TGCGCAACAACTTGGGGTGTGGGTGTATGTCTAGAA | 63.7
TCAAACCTGGCTCACCACGTGGGACATAAGCATATG | 918
CTTCTGTAAATTTGGCTCGTGGGTGGACGCGCCCCG | 111
GTCTTGTCTCATTGAAGAGTGGGTGTCCCCACTTCA | 85.2
CTTTCCCGATCTTGACAGGTGGGTGTAGCACATTTG | 69.9
CGGGGTTAAGTTTATCACGTGTTTTGCTTGCAGCAG | 3690
GGTAATATTTTTACCACCGTGCGGACTTTCAATGGC | 94.9
TGCGCAACAACTTGGTGGGTGGGTGTATGTCTAGAA | 65.3
CATACCCAACCTTGCGGAGTGGGTGAAGATATTTGT | 67.1
ATTAAACTTTTTAGACACATGACAAAGGCCATCGGC | 349
GTCGTCGTCGTACTCATCTAATAGTTCAATGTCTAA | 65.5
CGTAGACTTTTACGTCAGCTGAGAAAGAATATTTGT | 313
AGGCTCGCTGGTCAACACATGCTGTGAGCAGGCCTG | 65.8
CATACCCAACCTTTTCACGTGTGGTAAGATATTTGT | 692
CTTTCCCGATCTTGTCACCCCACTTTAGCACATTTG | 69.7
CTTTCCCGATCTTTTCACGTGGGTTTAGCACATTTG | 686
TCTCTTCTTGGTACCGGCGTGATGGATTTGAAGCTA | 105
AATATGGCAGCCTCGCTGGTGTGCCACATAATATTA | 63.1
CTAACGAAGGTTTGTCACCGCACTTACAAGCCAAGT | 65.7
TAGGAAGAACCGGTTCTCGTGGTGATGTCCCCCAAG | 79.3
GACCAGTGGCCCCGTCACAATATTCTCGGAAGCTAA | 56.9

Sample 3 — technique: protein binding microarray; form: double-stranded DNA, one strand shown; matrix: in vitro; tested at: not given; reference: not given; reading: higher = stronger binding
Target: Histone acetyltransferase KAT6A, winged helix 2, GST fusion (KAT6A, Homo sapiens, UniProt Q92794, residues 85-181)
Notes: 8-mer, flanks averaged, mean of 2 arrays, mostly near background
Target sequence (chain): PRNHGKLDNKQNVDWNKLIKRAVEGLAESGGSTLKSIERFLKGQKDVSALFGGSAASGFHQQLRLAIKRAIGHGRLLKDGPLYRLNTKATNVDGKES
Oligonucleotide | E-score
TCCATGGA | 0.00135
AGACGTGG | -0.121
GGCTGAAA | 0.249
AAGTGAAG | -0.131
ACTTCGCA | -0.0772
AAATCCGA | 0.0191
CACCTGTA | -0.113
AGGAACGG | -0.0347
AACTGTCT | -0.0231
AACCACTA | -0.13
GTGGCAGA | -0.0797
AAGATATT | 0.0325
GGGCCGCA | 0.208
GCGGTCAA | 0.133
TCCAACAA | 0.029
GTAGTACA | -0.174
CGAACGAA | -0.0112
AACCCGGG | 0.146
ATAGATGC | -0.103
CCGGCGCG | 0.272
ATAAGAGC | 0.132

Sample 4 — technique: universal PBM; form: double-stranded DNA, one strand shown; matrix: in vitro; tested at: 600 nM; reading: higher = stronger binding
Target: Sal-like protein 4, full length isoform A (SALL4, Homo sapiens, UniProt Q9UJQ4, residues 1-1053)
Sequence of UniProt Q9UJQ4 (whole entry, looked up): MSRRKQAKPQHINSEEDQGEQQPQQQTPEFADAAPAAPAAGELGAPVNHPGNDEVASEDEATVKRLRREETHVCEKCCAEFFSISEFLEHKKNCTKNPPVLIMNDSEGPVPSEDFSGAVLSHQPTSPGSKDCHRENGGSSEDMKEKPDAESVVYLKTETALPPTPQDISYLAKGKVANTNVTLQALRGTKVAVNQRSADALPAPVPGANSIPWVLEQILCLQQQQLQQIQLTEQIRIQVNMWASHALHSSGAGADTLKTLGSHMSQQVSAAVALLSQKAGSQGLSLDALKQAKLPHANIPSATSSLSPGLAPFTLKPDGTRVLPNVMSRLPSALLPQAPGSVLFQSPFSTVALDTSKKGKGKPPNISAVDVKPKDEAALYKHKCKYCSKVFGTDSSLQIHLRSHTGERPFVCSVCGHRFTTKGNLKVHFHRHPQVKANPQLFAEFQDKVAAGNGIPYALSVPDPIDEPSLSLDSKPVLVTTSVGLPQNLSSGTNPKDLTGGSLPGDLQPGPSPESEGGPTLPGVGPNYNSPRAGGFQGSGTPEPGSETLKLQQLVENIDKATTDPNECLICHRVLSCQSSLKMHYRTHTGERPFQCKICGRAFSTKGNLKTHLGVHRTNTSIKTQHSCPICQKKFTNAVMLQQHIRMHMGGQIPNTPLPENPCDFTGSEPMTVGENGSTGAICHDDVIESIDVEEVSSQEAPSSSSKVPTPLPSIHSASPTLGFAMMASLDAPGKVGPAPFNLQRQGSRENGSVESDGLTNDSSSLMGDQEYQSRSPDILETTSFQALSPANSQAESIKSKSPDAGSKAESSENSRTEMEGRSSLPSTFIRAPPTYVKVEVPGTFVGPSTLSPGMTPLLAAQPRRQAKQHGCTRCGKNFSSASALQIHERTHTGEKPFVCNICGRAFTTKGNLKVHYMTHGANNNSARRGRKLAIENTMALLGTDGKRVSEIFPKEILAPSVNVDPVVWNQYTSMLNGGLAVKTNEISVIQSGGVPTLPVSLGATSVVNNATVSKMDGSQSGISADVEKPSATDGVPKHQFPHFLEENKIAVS
Notes: 8-mer, flanks averaged, mean of replicates
Oligonucleotide | E-score
AGTCAATA | 0.221
AATGCGGG | -0.0495
GTGTAATA | 0.314
TCGTATAA | 0.267
AGGCATTG | -0.0122
AGCATGCC | -0.196
AGCGCTTA | -0.141
GAAGTTAA | 0.132
CGGATGGA | 0.0521
GGACAAAC | -0.0805
CTCGCACA | -0.108
AAACTACA | 0.125
CTGGGACC | -0.251
ACCATGTA | 0.143
ACTCTTCA | 0.0923
TGTTGAAA | 0.212
AGCGTGCA | -0.102
GGAGGAAC | -0.125
GTCTCAGA | -0.0398
CTATAAGC | 0.189
AGCAACAT | 0.126
CCAGCGAG | -0.259
GTATGCAA | 0.123
GTTTATTA | 0.403
CAATCGAC | -0.0395

Sample 5 — technique: RNA Bind-n-Seq; form: RNA; matrix: in vitro; tested at: 365 nM; reference: no-protein control; reading: higher = stronger binding
Target: RNA binding protein fox-1 homolog 2, RRM domain, GST-SBP tag (RBFOX2, Homo sapiens, UniProt O43251-10, residues 100-194)
Notes: natural RNA segment, single round, ends assumed
Shared flanks, not repeated: GGGAGUUCUACAGUCCGACGAUC … UGGAAUUCUCGGGUGCCAA
Residues (chain): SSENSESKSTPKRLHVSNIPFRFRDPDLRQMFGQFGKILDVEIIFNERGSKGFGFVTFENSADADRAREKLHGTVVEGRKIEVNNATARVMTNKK
Oligonucleotide | RBNS enrichment (R)
UGCCUGCUUGAAGGAACAGUGCUGUUCUGGAGCUGCUGUUCCAACAGACAGGGCCUAGCUUUCAUUUGACACACAGACUACAGCCAGAAGCCCAUGGAGCAGGGAUGUCA | 0.412
UGGCCUAGCCGCCCGUGACUCUCACACUGUCUCCUGCAUGACGGGUGGCGCCUCCCGCAGCUUCCCUUCUCUCUCCAGUGCUGCCCGCUGUGUCUAGCAGCCUCUAGGAU | 2.45
GAAACUUUAAAUUUUUAAAAGGCUUCUAGUUAGCUGCUUUAAAUCUAUCUAUAUAAUGUAGUAUGAUGUAAUGUGGUCUUUUUUUUAGAUUUUGUGCAGUUAAUACUUAA | 1.13
GCCAUGGCAUUUCAUGAUAUGUGAUUAGGAGCUCGUGUGCACCCUCAUAUCCAUUCCAUGAGAAGGUGAGGGAUACCUCCUUGGGGCUGUUUGUAUCAUGGACUGUCAUG | 0.696
UCACGUUCUGGUAUUUCUGAGGUUAACACUUGAUUUAGCCCCUACAUAUCUUUCCAUAUAUCCUAUUAUUUCUGAAUAUAUGUCCUCAAAAUCCCCAUAAAUAUCCAUCC | 0.526
AAUCCAUGUCUAUAAUCUACCAACAAAGAUGUACUCUUAAACUCAGUAUCACCAGGCACUAUAUUUCAUCUUUGAGGCUUUUGUUAUACCAAGGAAUACUAUAUAAAGUA | 0.343
UCCAUCCCACCUUUUCCUUCCACUGCCCAAUCACAGCCUCUAGCCUUUAUUUGACCAGUUAAAAUGGGCAAAAGGUUCACAUGCUGUCACCUGAGCACAUGGUCUACUGC | 0.458
CCCCAUUCAGCCACUUUGUAUUUUACUCCUGGGUCGAUGCACCUCCGACCUUCAGCUUUUCCUAACUGCACUUACGUGGUCUGCAGCAACCUCUGCCCCCUCCUCCCAGA | 1.68
UUGGCUGGGAGGCCGCGGGAGGGAGGCCAGGAGGCCCGGACCAGUUGGGAGGAGUGAGCAGGCCCCGGGGGAGGGGGAUGAGCGCAGUUUGCUCGCUUUCCUCCCCUGCC | 0.734
UGGCCACAACACAUAAGGUGCCCCGGGUGGCAGCCAUCACAGUAACUUCCAGGUGGUCUCCUGAGUGUCUGGCUUGAUAAUGCCCUCAAUUCAGGAGUGAGCCUCUGUGA | 0.407
UGGGCCACCAAGCUAGGCUAAGAAAGAGGUUUUAAUUGUGGUUUCUUUCCUGCAGUGCUGUCCCCAACCCCGUGUAGCUCUGUUAUUACCAUAGGGGACUUGGUUUUGGA | 0.534
AACUGUAUUAAAAAGGCUCUGUUUUUAAAGAUCAAUUGUCAUUCCUGUGGGGACAGUGGCUACUGAGAAAUCUACAUUGUAAGAGAAGACAAUGAAAGACCCUGGCCCUG | 0.554

Sample 6 — organism: Saccharomyces cerevisiae; read-out: binding; technique: competitive growth deep sequencing; form: peptide; strain: cyclin D2-Cln2 fusion strain; tested at: concentration not given; notes: peptide tiling library; reading: direction not given
Sequence | growth enrichment score
KDDDKAWEYEERDRRS | 0.559
VLVRTSACRSLFGPVD | -0.569
PQWPCGKHKRVLIFAS | -1.51
VLPGGVPSPGASLTSM | 0.428
VRDLSYRLVFLACCVA | -1.56
DGCSPIKNWSPMRL | 0.707
AEHPKPSACRNLFGPV | -0.149
TSPGPVLLHPSPSTTQ | 0.918
SGYLTDENEVGFRG | 0.391
QNPCGSKACRRLFGPV | -0.854
NFETPEAETPIRSPFK | -0.588
TRRRLFVENDSP | -0.832
RNRGPKLNAMLRLGVL | -2.87

A few entries again (sample 2):
Oligonucleotide | fluorescence intensity [a.u.]
GGTAATATTTTTACCACCGTGCGGACTTTCAATGGC | 94.9
TGCGCAACAACTTGGTGGGTGGGTGTATGTCTAGAA | 65.3
CATACCCAACCTTGCGGAGTGGGTGAAGATATTTGT | 67.1
ATTAAACTTTTTAGACACATGACAAAGGCCATCGGC | 349
GTCGTCGTCGTACTCATCTAATAGTTCAATGTCTAA | 65.5
CGTAGACTTTTACGTCAGCTGAGAAAGAATATTTGT | 313
AGGCTCGCTGGTCAACACATGCTGTGAGCAGGCCTG | 65.8
CATACCCAACCTTTTCACGTGTGGTAAGATATTTGT | 692
CTTTCCCGATCTTGTCACCCCACTTTAGCACATTTG | 69.7
CTTTCCCGATCTTTTCACGTGGGTTTAGCACATTTG | 686
TCTCTTCTTGGTACCGGCGTGATGGATTTGAAGCTA | 105
AATATGGCAGCCTCGCTGGTGTGCCACATAATATTA | 63.1
CTAACGAAGGTTTGTCACCGCACTTACAAGCCAAGT | 65.7
TAGGAAGAACCGGTTCTCGTGGTGATGTCCCCCAAG | 79.3
GACCAGTGGCCCCGTCACAATATTCTCGGAAGCTAA | 56.9
